Assay results pooled from the literature.
Lines come from different studies, so protocols differ.
B1: STAMBPL1 264-436 (Homo sapiens, UniProt Q96FJ0); chain EGLRCVVLPEDLCHKFLQLAESNTVRGIETCGILCGKLTHNEFTITHVIVPKQSAGPDYCDMENVEELFNVQDQHDLLTLGWIHTHPTQTAFLSSVDLHTHCSYQLMLPEAIAIVCSPKHKDTGIFRLTNAGMLEVSACKKKGFHPHTKEPRLFSICKHVLVKDIKIIVLDLR
B2: human hexokinase-1; sequence looked up; chain MIAAQLLAYYFTELKDDQVKKIDKYLYAMRLSDETLIDIMTRFRKEMKNGLSRDFNPTATVKMLPTFVRSIPDGSEKGDFIALDLGGSSFRILRVQVNHEKNQNVHMESEVYDTPENIVHGSGSQLFDHVAECLGDFMEKRKIKDKKLPVGFTFSFPCQQSKIDEAILITWTKRFKASGVEGADVVKLLNKAIKKRGDYDANIVAVVNDTVGTMMTCGYDDQHCEVGLIIGTGTNACYMEELRHIDLVEGDEGRMCINTEWGAFGDDGSLEDIRTEFDREIDRGSLNPGKQLFEKMVSGMYLGELVRLILVKMAKEGLLFEGRITPELLTRGKFNTSDVSAIEKNKEGLHNAKEILTRLGVEPSDDDCVSVQHVCTIVSFRSANLVAATLGAILNRLRDNKGTPRLRTTVGVDGSLYKTHPQYSRRFHKTLRRLVPDSDVRFLLSESGSGKGAAMVTAVAYRLAEQHRQIEETLAHFHLTKDMLLEVKKRMRAEMELGLRKQTHNNAVVKMLPSFVRRTPDGTENGDFLALDLGGTNFRVLLVKIRSGKKRTVEMHNKIYAIPIEIMQGTGEELFDHIVSCISDFLDYMGIKGPRMPLGFTFSFPCQQTSLDAGILITWTKGFKATDCVGHDVVTLLRDAIKRREEFDLDVVAVVNDTVGTMMTCAYEEPTCEVGLIVGTGSNACYMEEMKNVEMVEGDQGQMCINMEWGAFGDNGCLDDIRTHYDRLVDEYSLNAGKQRYEKMISGMYLGEIVRNILIDFTKKGFLFRGQISETLKTRGIFETKFLSQIESDRLALLQVRAILQQLGLNSTCDDSILVKTVCGVVSRRAAQLCGAGMAAVVDKIRENRGLDRLNVTVGVDGTLYKLHPHFSRIMHQTVKELSPKCNVSFLLSEDGSGKGAALITAVGVRLRTEASS
Chain of UniProt Q96NY8 (whole entry, looked up): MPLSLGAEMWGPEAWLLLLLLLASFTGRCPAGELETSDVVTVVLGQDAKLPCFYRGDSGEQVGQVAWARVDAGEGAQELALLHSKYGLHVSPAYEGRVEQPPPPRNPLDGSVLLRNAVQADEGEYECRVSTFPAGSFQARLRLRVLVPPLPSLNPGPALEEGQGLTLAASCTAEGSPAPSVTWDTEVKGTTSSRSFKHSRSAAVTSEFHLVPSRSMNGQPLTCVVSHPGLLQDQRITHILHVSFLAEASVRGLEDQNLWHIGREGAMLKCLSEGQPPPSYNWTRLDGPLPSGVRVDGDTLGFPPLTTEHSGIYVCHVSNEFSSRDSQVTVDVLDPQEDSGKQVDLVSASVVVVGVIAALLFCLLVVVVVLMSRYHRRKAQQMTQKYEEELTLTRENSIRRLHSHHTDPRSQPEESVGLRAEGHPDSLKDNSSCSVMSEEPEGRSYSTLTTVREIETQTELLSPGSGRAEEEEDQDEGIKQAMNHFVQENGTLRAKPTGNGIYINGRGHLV
Chain of UniProt P0A988 (whole entry, looked up): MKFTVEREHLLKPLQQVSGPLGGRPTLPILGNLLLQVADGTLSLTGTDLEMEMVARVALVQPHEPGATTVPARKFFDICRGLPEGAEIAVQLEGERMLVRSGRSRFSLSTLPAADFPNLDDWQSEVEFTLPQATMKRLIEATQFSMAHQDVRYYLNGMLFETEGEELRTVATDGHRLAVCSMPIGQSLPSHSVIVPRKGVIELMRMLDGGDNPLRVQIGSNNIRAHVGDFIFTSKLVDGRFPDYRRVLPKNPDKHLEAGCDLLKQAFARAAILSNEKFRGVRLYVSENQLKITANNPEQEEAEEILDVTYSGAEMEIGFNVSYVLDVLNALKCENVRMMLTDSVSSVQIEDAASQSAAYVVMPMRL
Chain of UniProt P47872 (whole entry, looked up): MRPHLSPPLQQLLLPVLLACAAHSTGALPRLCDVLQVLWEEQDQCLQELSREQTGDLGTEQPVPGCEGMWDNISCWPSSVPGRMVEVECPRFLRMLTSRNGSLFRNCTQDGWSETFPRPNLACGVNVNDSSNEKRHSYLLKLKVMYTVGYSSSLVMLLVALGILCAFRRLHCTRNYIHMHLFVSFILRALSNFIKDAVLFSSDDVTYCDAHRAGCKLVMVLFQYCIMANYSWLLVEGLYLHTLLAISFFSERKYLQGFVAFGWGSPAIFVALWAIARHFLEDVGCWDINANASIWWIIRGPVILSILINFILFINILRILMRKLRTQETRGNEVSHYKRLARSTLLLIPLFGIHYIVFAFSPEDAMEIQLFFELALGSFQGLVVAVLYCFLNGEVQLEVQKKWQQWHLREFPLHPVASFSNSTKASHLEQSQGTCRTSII
Chain of UniProt Q13185 (whole entry, unmodified, looked up): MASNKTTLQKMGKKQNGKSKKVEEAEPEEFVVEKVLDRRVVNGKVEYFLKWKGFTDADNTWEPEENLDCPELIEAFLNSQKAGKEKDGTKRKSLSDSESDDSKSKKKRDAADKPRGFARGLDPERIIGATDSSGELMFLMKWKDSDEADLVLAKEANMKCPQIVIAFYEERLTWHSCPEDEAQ
Chain of UniProt P12314 (whole entry, looked up): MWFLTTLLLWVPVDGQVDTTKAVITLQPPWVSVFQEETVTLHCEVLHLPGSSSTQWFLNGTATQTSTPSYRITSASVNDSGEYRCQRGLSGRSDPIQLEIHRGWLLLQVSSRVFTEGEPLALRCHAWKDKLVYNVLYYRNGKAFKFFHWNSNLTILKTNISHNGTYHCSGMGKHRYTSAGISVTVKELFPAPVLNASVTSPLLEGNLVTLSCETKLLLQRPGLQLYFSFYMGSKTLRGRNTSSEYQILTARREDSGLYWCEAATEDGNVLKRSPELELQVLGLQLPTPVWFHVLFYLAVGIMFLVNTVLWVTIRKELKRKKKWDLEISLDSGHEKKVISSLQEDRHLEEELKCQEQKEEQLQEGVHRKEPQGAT
Chain of UniProt P46531 (whole entry, looked up): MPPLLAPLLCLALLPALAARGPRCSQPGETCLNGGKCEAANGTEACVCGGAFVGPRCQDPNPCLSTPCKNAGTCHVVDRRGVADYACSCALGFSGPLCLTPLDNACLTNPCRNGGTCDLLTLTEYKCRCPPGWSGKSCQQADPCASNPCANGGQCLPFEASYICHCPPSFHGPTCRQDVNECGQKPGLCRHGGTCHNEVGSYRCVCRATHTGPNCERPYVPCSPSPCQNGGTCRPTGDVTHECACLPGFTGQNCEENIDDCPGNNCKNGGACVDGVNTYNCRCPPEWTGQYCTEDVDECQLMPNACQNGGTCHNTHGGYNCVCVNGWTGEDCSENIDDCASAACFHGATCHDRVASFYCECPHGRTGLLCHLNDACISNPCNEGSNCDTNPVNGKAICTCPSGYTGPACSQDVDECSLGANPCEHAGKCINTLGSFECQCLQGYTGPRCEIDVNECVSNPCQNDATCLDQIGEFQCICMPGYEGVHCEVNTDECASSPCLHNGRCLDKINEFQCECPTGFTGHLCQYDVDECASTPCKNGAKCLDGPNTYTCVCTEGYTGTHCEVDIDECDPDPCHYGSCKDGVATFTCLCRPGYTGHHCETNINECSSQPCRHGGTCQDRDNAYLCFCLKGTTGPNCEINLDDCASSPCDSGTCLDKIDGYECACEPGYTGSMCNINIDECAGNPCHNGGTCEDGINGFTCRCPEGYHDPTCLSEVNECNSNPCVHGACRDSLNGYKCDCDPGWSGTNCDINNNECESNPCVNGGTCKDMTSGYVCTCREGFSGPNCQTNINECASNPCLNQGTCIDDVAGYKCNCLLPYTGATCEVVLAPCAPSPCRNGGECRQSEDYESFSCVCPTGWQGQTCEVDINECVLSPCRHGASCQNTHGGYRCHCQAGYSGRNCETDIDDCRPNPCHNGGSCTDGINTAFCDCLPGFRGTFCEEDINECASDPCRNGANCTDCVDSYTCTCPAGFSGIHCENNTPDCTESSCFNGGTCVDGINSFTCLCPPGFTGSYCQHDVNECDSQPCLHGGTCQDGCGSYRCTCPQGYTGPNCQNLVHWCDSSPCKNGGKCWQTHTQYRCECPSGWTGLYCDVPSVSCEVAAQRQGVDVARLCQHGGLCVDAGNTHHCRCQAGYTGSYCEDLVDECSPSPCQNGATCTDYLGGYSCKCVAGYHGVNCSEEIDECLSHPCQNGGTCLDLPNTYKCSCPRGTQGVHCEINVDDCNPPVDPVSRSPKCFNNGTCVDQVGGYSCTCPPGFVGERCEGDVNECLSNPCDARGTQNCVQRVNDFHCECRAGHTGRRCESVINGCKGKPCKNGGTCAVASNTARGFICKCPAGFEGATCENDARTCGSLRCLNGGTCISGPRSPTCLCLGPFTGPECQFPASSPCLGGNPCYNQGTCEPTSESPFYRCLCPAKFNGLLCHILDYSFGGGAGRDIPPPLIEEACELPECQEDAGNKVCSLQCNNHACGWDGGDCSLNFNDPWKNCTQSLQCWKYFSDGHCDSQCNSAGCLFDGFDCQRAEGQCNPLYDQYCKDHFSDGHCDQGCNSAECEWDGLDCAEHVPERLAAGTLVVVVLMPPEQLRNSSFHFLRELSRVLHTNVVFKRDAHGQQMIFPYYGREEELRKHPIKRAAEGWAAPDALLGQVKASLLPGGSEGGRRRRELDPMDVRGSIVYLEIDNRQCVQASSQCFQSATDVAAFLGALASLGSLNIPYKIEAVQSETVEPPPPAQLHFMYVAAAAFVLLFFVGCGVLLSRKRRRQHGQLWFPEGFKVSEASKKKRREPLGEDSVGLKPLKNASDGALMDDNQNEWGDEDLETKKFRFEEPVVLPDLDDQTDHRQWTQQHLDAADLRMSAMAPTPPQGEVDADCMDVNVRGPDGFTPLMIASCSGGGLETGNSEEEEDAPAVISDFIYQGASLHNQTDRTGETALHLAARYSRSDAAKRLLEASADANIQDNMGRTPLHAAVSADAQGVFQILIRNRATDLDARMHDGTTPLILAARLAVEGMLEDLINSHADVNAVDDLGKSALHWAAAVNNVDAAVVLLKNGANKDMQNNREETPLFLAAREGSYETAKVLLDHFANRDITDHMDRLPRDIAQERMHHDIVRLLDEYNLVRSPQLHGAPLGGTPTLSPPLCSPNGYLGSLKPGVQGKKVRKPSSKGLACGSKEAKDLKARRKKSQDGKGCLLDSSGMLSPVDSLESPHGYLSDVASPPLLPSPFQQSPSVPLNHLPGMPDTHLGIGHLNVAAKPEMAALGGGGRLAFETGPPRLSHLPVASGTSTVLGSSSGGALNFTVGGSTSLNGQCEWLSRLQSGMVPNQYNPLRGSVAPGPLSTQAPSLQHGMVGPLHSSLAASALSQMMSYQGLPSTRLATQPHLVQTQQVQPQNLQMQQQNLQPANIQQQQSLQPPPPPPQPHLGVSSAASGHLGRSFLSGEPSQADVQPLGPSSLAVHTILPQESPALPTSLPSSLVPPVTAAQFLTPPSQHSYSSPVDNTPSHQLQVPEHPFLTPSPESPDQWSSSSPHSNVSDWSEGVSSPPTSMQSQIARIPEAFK

`FGA (Homo sapiens, UniProt P02671)`: cross-linked residues “K437 to K205” (DNAJA1 (Homo sapiens, UniProt P31689); cross-linking MS; with: DSSO).
For `Trastuzumab IgG1 (Homo sapiens)`, the kon was 250000 M⁻¹ s⁻¹ (FCGR1A (Homo sapiens, UniProt P12314); SPR).
With `EGLN1 fragment` the kon was 3000 M⁻¹ s⁻¹ (HIF1A NODD peptide 394-411, C-terminal amide (Homo sapiens); BLI).
`H3C1 N-terminal peptide, K14 butyryl` gave a ΔH of -1.8 kcal/mol (KAT6A 194-323 (Homo sapiens, UniProt Q92794); ITC; pH 7.5).
For `FGG (Homo sapiens, UniProt P02679)`, cross-linked residues read “K231 to K10” (PRRC2A (Homo sapiens, UniProt P48634); cross-linking MS; with: DSSO).
The Ki of `ACPAGCMKNWSWPIWCTNK (bicyclic peptide; C-terminal amide/TATA scaffold, three cysteines cyclised)` is reported as over 10000 nM (NECTIN4 32-349 (Homo sapiens, UniProt Q96NY8); fluorescence polarisation; peptide).
`B1 (STAMBPL1 264-436)` has a kcat of 10.3 s⁻¹ (Lys63-linked diubiquitin (Homo sapiens, UniProt P0CG48); Lys63 diubiquitin cleavage, SDS-PAGE; 20-100 µM, 20 °C).
`colistin` has an MIC of at most 0.5 µg/mL (Acinetobacter baumannii; broth microdilution; clinical isolate RKI-No_271/16).
`HSDGTFTSELSRLREGARLQRLLQGLV (SCT mature (Homo sapiens, UniProt P09683))` has a cAMP response of 11.1 pEC50 (SCTR (Homo sapiens, UniProt P47872); cAMP, agonist, HTRF; peptide, CHO-SecR).
Under interaction screen, `H2AC18 (Homo sapiens, UniProt Q6FI13)` is recorded as “cross-linked” (H2BC9 (Homo sapiens, UniProt Q93079); cross-linking MS; hits only).
`dnaE alpha , NLuc fusion A921L/M923L (Escherichia coli)` has a BRET increase of 267% (dnaN (Escherichia coli, UniProt P0A988); BRET; in cells; reference: wild type signal, higher = more interaction).
`FGB (Homo sapiens, UniProt P02675)` — result for cross-linked residues: “K367 to K2182” (NIPBL (Homo sapiens, UniProt Q6KC79); cross-linking MS; with: DSSO).
The binding reduction of `CBX3 (Homo sapiens, UniProt Q13185)` is reported as 38% (SUV39H1 catalytic domain, C-terminal truncation (Homo sapiens); pull-down; 3 µM, with: chaetocin 0.1 µM; higher = less binding).
`B2 (human hexokinase-1)` — result for “log2 fold change”: -0.92 (PP6C (human); co-immunoprecipitation, IP-MS; CYB5R4 knockout cells; concentration not given; reference: CYB5R4 knockout over parental).
`DLL4 fragment (Homo sapiens)` gave an EC50 of 16 nM (NOTCH1 full length, on cells (UniProt P46531); Notch1 reporter activation, agonist; CHO-K1 N1-Gal4).
For `human VDAC1`, “log2 fold change” read 0.4 (PP6C (human); co-immunoprecipitation, IP-MS; CYB5R4 knockout cells; concentration not given; reference: CYB5R4 knockout over parental).
For `DLDSDDEY (TELO2 488-494 (Homo sapiens); pS491)`, “molecule per partner” read 0.6 (PIH1D1 51-180 R163A (Homo sapiens, UniProt Q9NWS0); ITC; peptide).

Repeated from above:
The Ki of `ACPAGCMKNWSWPIWCTNK (bicyclic peptide; C-terminal amide/TATA scaffold, three cysteines cyclised)` is reported as over 10000 nM (NECTIN4 32-349 (Homo sapiens, UniProt Q96NY8); fluorescence polarisation; peptide).
`B1 (STAMBPL1 264-436)` has a kcat of 10.3 s⁻¹ (Lys63-linked diubiquitin (Homo sapiens, UniProt P0CG48); Lys63 diubiquitin cleavage, SDS-PAGE; 20-100 µM, 20 °C).
`colistin` has an MIC of at most 0.5 µg/mL (Acinetobacter baumannii; broth microdilution; clinical isolate RKI-No_271/16).
